Experimental data collected from several papers.
Parts stem from different laboratories: compare values within a part only.

Sample 1
Target: Histone acetyltransferase KAT6A, winged helix 2, GST fusion (KAT6A, Homo sapiens, UniProt Q92794, residues 85-181)
Method: protein binding microarray
Molecule type: double-stranded DNA, one strand shown
Medium: in vitro
Tested at: not given
Setting: 8-mer, flanks averaged, mean of 2 arrays, mostly near background
Baseline: not given
Direction: higher = stronger binding
Quantity: E-score
Target sequence (chain): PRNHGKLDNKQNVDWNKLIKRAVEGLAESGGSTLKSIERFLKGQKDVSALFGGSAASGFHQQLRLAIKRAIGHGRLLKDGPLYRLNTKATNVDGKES
ACTGCAAC: -0.141
CCGCGGTA: 0.132
AATGCTAT: 0.0257
CAATAGGA: -0.196
GGAAAGAC: -0.135
CGATCCTC: -0.0643
ACCATTAA: 0.0494
ATTAGAGA: 0.00623
ATTTAGAG: 0.0756
CAGCTTTA: 0.0204
GAGATAAC: -0.085
ACTGCGAG: -0.0501
CATTAGTC: -0.152
CATCAACA: 0.0489
ATTTTTGA: -0.0317
ATTTTGAA: 0.187
AAAGTACA: 0.0704
GCAGACCC: 0.077
GCGAAACA: 0.116
GATCACCA: 0.0316
CCTCGAAG: 0.145
CTCTTTCA: 0.028

Sample 2
Target: Ras GTPase-activating protein-binding protein 1, RRM domain (G3BP1, Homo sapiens, UniProt Q13283)
Chain of UniProt Q13283 (whole entry, looked up): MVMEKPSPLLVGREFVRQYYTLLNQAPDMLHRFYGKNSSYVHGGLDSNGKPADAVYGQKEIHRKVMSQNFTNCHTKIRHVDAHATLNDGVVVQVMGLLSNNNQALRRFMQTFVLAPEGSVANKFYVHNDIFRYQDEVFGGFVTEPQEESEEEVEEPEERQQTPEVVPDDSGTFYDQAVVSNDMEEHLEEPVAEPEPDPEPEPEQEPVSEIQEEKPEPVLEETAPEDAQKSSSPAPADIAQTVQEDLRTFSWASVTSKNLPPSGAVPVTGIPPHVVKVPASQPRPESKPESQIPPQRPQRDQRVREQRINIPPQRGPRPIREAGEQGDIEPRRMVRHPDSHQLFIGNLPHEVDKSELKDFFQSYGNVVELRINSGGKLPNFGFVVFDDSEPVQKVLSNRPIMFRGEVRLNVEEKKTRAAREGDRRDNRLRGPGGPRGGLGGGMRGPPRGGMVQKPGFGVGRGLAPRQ
Method: RNA Bind-n-Seq
Molecule type: RNA
Medium: in vitro
Tested at: 1 µM
Setting: whole 134-nt RNA, ends assumed
Together with: 150 mM KCl
Baseline: input library
Direction: higher = stronger binding
Quantity: log2 enrichment
All sequences stand within: GGGAGUUCUACAGUCCGACGAUC … UGGAAUUCUCGGGUGUCAAGG
ACCAUGCAGGUGGUCAUCUUUGGGAAGUGGGGCAAGGGGGGGAUAGGGAGGGGGGUAACACUUUGGGAACAGGUGGUCCCAGGUCGUUUC: -0.52
CUGUGCUACACAUCGUAUGUACCGAAUCGGGGAAAAAAAGGAAAAAAAGGGAAAAAAAGGGGAAAGUAUUAUGUUACGCCGUUCGGAUCU: 0.115
CCUCAAGUCCUGUGCUACACAUCGUAUGUACCGAAUCGGGGAAGGAAGGAAGGAAAGUAUUAUGUUACGCCGUUCGGAUCUGCACUUCCA: -0.303
UUGCGCCUGUCCCGGGUGAAGUGUGUCGGCCUCUCCGCACGCACCACGGAGACCAGCAGUGCAGUCAUGUGCCUGGACCUUGCAGCUUCC: -0.354
AAGUCCUGUGCUACACAUCGUAUGUACCGAAUCGUGUGUGUGUGUGUGUGUGUGUGAAAGUAUUAUGUUACGCCGUUCGGAUCUGCACUU: 0.05
UAACUUUAGAGGAGGAUCUGAUGGAUAUGGCAGUGGACGUGGAGUUGGGGAUGGCUAUAAUGGGUAUGGAGGAGGACCUGGAGGUGGCAA: -0.735
UGGCCAAUAGCAUCCUUUUCCAGUCUUCCGGUCUGACAAAUGGAAUAAUAGAAGAAAAGGACAUACAUGAAGAAUUGCCAAAACGGAAAG: -0.0823
GUCCUGUGCUACACAUCGUAUGUACCGAAUCGGGCCCCCGGGCCCCCGGGCCCCCGGGAAAGUAUUAUGUUACGCCGUUCGGAUCUGCAC: -0.846
UGGCCCUGGUGGCAUGCGGGGAGGAAGAGGUGGCCUCAUGGAUCGUGGUGGUCCCGGUGGAAUGUUCAGAGGUGGCCGUGGUGGAGAUAG: 1.69
UCAAGUCCUGUGCUACACAUCGUAUGUACCGAAUCGGUUUGGUUUUUGGUUUGGAAAGUAUUAUGUUACGCCGUUCGGAUCUGCACUUCC: -0.226

Sample 3
Target: Sal-like protein 4, full length isoform A (SALL4, Homo sapiens, UniProt Q9UJQ4, residues 1-1053)
Chain of UniProt Q9UJQ4 (whole entry, looked up): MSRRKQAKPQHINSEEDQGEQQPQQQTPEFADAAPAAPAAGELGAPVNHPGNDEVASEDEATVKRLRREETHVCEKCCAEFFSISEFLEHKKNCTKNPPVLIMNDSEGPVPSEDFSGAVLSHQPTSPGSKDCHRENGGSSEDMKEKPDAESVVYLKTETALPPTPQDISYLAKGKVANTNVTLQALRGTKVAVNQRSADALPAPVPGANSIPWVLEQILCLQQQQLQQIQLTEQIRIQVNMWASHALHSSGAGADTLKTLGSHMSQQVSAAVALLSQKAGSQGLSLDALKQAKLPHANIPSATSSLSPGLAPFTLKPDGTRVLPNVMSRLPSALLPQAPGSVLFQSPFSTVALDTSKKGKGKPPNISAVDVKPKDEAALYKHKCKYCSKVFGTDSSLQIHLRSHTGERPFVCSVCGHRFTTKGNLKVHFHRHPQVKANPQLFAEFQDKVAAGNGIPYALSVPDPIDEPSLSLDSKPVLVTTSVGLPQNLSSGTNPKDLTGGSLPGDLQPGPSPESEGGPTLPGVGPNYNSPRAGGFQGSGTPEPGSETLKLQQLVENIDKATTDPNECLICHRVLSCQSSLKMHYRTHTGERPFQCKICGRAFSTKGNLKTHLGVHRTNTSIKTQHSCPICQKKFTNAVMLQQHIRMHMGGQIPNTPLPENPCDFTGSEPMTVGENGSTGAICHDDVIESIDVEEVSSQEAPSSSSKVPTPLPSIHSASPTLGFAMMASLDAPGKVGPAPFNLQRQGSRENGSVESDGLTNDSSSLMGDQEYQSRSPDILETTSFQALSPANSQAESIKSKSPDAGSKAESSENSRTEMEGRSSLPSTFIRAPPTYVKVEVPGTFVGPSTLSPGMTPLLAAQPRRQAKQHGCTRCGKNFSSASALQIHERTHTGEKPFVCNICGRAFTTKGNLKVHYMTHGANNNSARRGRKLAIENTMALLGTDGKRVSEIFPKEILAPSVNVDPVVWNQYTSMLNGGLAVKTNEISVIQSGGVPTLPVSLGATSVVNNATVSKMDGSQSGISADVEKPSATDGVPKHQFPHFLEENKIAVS
Method: universal PBM
Molecule type: double-stranded DNA, one strand shown
Medium: in vitro
Tested at: 600 nM
Setting: 8-mer, flanks averaged, mean of replicates
Direction: higher = stronger binding
Quantity: E-score
ATCAATAA: 0.383
GCACGCAC: -0.247
ACCCCATA: -0.206
AGATGGCG: -0.173
GATTCGGA: 0.156
CAGCGGCA: -0.281
GAACGACC: -0.253
ACGAGTCT: 0.0296
CCAACAGA: 0.0362
ATCACCGA: 0.128
CATGTTCC: -0.0653
GAGAGCAA: -0.0996
CCATACCC: -0.16
AATCAGTA: 0.146
CAAAGGTG: -0.0489
CGATTACC: -0.155
CATTTCTC: 0.129
CAATACGG: -0.149
ACAAAAGT: 0.211
CAAATACA: 0.292
CGTTGGTC: -0.177

Sample 4
Target: PABPC1L2, full length, GST fusion (mouse, UniProt A0ABA7IW68)
Method: RNAcompete
Molecule type: RNA
Medium: in vitro
Tested at: 20 nM
Setting: 7-mer, probes averaged, single round
Baseline: mean of 7-mers
Direction: higher = stronger binding
Quantity: 7-mer Z-score
Construct (chain): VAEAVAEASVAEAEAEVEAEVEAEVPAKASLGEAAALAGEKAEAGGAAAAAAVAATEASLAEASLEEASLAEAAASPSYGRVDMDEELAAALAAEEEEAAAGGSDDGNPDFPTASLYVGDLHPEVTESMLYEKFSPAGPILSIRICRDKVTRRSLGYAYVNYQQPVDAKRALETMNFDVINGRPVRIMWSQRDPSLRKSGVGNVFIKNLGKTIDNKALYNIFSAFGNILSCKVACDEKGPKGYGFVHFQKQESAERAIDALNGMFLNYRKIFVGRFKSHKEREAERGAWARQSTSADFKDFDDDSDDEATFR
AGAUUAA: 0.138
AUACGCA: -0.103
AAGGGCG: 0.767
UAUUUCU: -0.402
AGGGAGC: 0.187
CGUCCAC: -0.324
GGAUAUC: -0.135
ACUCGUG: -0.231
UCAAGCU: -0.277
UAGGGUC: 0.158
GACCAAA: 1.24
UACUAGG: -0.0554
AUAACUG: -0.17
UCCGAGG: -0.184
CGCGGGC: -0.168
UACUUUU: -0.224
GCCCCUG: -0.338
AUAAUAA: 0.441
AGCAGUG: 0.037
CUGACCU: -0.217
ACCCUCU: -0.335
GUCCCAU: -0.394
CCUUUAG: -0.0736
AAUUACC: 0.017

Sample 5
Target: RING finger protein unkempt homolog, zinc fingers 1-6, GST-SBP tag (UNK, Homo sapiens, UniProt Q9C0B0, residues 30-357)
Chain of UniProt Q9C0B0 (30-357, looked up): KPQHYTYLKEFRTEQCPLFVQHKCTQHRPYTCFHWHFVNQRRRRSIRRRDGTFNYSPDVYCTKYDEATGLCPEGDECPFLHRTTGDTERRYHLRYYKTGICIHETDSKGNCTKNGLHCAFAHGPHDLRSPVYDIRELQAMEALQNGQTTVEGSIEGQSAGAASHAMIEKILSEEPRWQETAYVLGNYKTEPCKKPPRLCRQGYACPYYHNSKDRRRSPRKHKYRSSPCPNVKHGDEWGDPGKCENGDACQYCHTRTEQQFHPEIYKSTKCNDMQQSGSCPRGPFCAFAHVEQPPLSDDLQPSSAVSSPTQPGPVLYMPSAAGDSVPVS
Method: RNA Bind-n-Seq
Molecule type: RNA
Medium: in vitro
Tested at: not given
Setting: RNA with constant flanks, human-mouse chimeric sites, ends assumed
Baseline: input RNA pool
Direction: higher = stronger binding
Quantity: bound/input enrichment
All sequences stand within: GGGAGUUCUACAGUCCGACGAUC … CAACAGAGGAUUGAGCAUCA
UAUAAUAAUCAUGAAAUUCGUUCUGGAAAGCACAUUGGUGUCUGCAUCUCAGUUGCCAACAAUAGGCUUUUUGUGGGCUCGAUUCCUAAGAGUAAAACCAAGGAACAGAUUCUUGAGGAA: 0.602 ratio
CCCCAAUACCAUUUGCAGGUCUGGAACCUGCAUUCUUUUUUUAAAAAACAUGUAUACAUUUUAGGGCUGUAGAUUUAUUUUCCUGGUUUUGUUUUUCAUUGCUGACUUUGAGCACAAGAA: 1.19 ratio
GUUGCCAGCUUCCGGUUCCGUUGGGCUCGGUUCUCUCCUGAGCUACGUGUCUCUACGUUUUAGGUGUGCCAUCCAACGGCAGUCAUGCAGGUAAUGCAGUUUGUGGAGCCCAGCCGGCAG: 0.171 ratio
CCUGCUCAGAUCACCAUGAAAGUAAUCCAAGGCUUGUAUAGUGGGGUCACCACAGUGGAACUGGACACCCUGGCUGCUGAAACAGCUGCGACCUUGACCACGAAGCACCCUGACUAUGCC: 0.125 ratio
GUAAUGGACGUUAAUACUGCUCUACAAGAGGUGCUGAAGACCGCCCUCAUCCACGAUGGCCUAGCACGUGGCAUACGCGAAGCUGCCAAAGCCUUAGACAAGCGCCAAGCCCAUCUGUGU: 0.294 ratio
AAAGUGGACUAUGGCGAGUACAUGGAUAAAAAUAAUGUGAGGCGGCAAGCAACAACAAUCAUAGCUGAUAAUAUUAUAUUUCUGAGUGACCAGACAAAAGAAAAGGCAUAGAACGGAUGA: 3.99 ratio
GAAACAUUUAAAUUUAAAGAAGCUGUUGUUUUAGGGAGUACGGACUUUCUAGAAGAUGAUAUAGAAAAAAUUGUAGAAGAACUGGGGAAAGAGUAUAAGGGCAACGCCUACCAUCUGAUG: 3.42 ratio
AAAGAGUGGAUAGAGUGUGCACACGGGAUCGGUGGGACUCGGGCAGAAAAGGAGUGCAAGAUAGAGUAUGAUGAUUUCGAAGAGUGCUUGCUUCGGUACAAAACGAUGAGGCGAAUGCAU: 0.795 ratio
ACUCUUGACUCUUUCCAUCCUCUUCCUUUCCCUCUUGAUAUUCAAGGCCAUGAAUCCCAAAAUAGCUGUCUUAGUGGGAGGCUAGCAAACAGAGGUGGAAUAAAUCCACCCCAGUGUCUC: 1.13 ratio
ACAGUUAUAUUGUUGAGUUUCAUUUUCAUAUAUUCUUGUAGUGUCUGCUUGCCUGUGACUUCUGGUAAAAUAAAAUAUUAAAAUUACAAUAUUUUAGCAUGGUAUUUAACAUUUUCUAAA: 1.46 ratio
UCCUUGGACCCCAGUCAUAUAGGUGACCUGCAAAAAGCAGACACCAGUAGUCAAGGUGCUUUAGUGUUUCUCUCAAAGGACUACGAAAUAGAAAGUCAAAAUCCCCUGGCCUCUCCUACG: 1.97 ratio

For quick reference, copied from above (sample 4):
ACUCGUG: -0.231
UCAAGCU: -0.277
UAGGGUC: 0.158
GACCAAA: 1.24
UACUAGG: -0.0554
AUAACUG: -0.17
UCCGAGG: -0.184
